Measured values from different studies.
Lines come from different studies, so protocols differ. Several values in a cell are separate wells, animals, samples, runs or records.
Cell line: HL-60(TB)

SMILES | read-out | method | concentration | time | measurement | value
C#C[C@@]1(O)[C@@H](CO)O[C@@H](n2cc(Cl)c3c(N)ncnc32)[C@@H]1O | cell growth |  |  |  | TGI | 0.317 µM and 0.197 µM
COc1cc(CCCO)c(OC)c2c1OCO2 |  | NCI60 SRB | concentration not given |  | growth percent | 99.4%
O=C(Nc1nnc2[nH]c(=S)[nH]c(-c3ccc(Cl)cc3)c1-2)c1ccccc1 |  |  | 10 µM |  | growth percent | 96.1%
COc1cc(CCC[P+](c2ccccc2)(c2ccccc2)c2ccccc2)c(OC)c2c1OCO2.[I-] |  | SRB |  |  | Log10TGI | -5.63 log M
O=c1ccn(Cc2cn(-c3c4ccccc4nc4ccccc34)nn2)c(=O)[nH]1 |  | NCI60 single dose | 10 µM |  | growth | 75.7%
COc1cc(CNC(=O)CCCCC[P+](c2ccccc2)(c2ccccc2)c2ccccc2)c(OC)c2c1OCO2.[Br-] |  | NCI60 SRB | concentration not given |  | growth percent | -2.75%
CC(C)N1CCC(NC2CCN(c3cccc(-c4cc5cc(F)ccc5[nH]4)c3)CC2)CC1 |  |  |  |  | CC50 | 7.86 µM
CSc1nc(-c2ccc(Cl)cc2)c2c(NC(=O)c3ccccc3)nnc-2[nH]1 |  |  | 10 µM |  | growth percent | 94.1%
CCCN1CCN(c2ccc3nc(-c4ccc5nc(-c6cc(OC)ccc6OC)[nH]c5c4)[nH]c3c2)CC1 | cell growth |  | 10 µM | 48 h | growth percent | 106%
Cc1cc(=O)[nH]c(=O)n1Cc1cn(-c2cc3ccccc3oc2=O)nn1 |  | NCI60 single dose | 10 µM |  | growth | 101%
Cc1cc(-c2ccccc2)n(-c2nc(-c3ccc(Cl)cc3)c3c(NC(=O)c4ccccc4)nnc-3[nH]2)n1 |  |  | 10 µM |  | growth percent | 112%
COc1c(CCCO)cc2c(c1OC)OCO2 |  | NCI60 SRB | concentration not given |  | growth percent | 97.4%
CCOc1ccc(-c2nc3cc(-c4nc5cc(N6CCN(C)CC6)ccc5[nH]4)ccc3[nH]2)cc1OCC | cell growth |  | 10 µM | 48 h | growth percent | 24.8%
O=c1ccn(Cc2cn(-c3cc4ccccc4oc3=O)nn2)c(=O)[nH]1 |  | NCI60 single dose | 10 µM |  | growth | 104%
CCCN1CCN(c2ccc3[nH]c(-c4ccc5[nH]c(-c6ccc(C(F)(F)F)cc6)nc5c4)nc3c2)CC1 | cell growth |  | 10 µM | 48 h | growth percent | -40.7%
COc1c(CCC[P+](c2ccccc2)(c2ccccc2)c2ccccc2)cc2c(c1OC)OCO2.[I-] |  | SRB |  |  | Log10LC50 | > -4 log M
C#C[C@@]1(O)[C@@H](CO)O[C@@H](n2ccc3c(N)ncnc32)[C@@H]1O | cell growth |  |  |  | TGI | 5.49 µM
O=C(Nc1nnc2n3c(nc(-c4ccc(Cl)cc4)c1-2)SCC3=O)c1ccccc1 |  |  | 10 µM |  | growth percent | 101%
Cn1cncc1C1=CN(c2ncnc3[nH]cnc23)CCS1 |  |  |  |  | GI50 | 21.9 µM
CCCN1CCN(c2ccc3[nH]c(-c4ccc5[nH]c(-c6ccc(OCC)c(OCC)c6)nc5c4)nc3c2)CC1 | cell growth |  | 10 µM | 48 h | growth percent | -23.1%
NNc1nc(-c2ccc(Cl)cc2)c2c(NC(=O)c3ccccc3)nnc-2[nH]1 |  |  | 10 µM |  | growth percent | 92.5%
CCCCN1CCN(c2ccc3[nH]c(-c4ccc5[nH]c(-c6ccc(OCC)cc6)nc5c4)nc3c2)CC1 | cell growth |  | 10 µM | 48 h | growth percent | 34.3%
CCN(CC)c1ccc(C=NNC(=O)CSc2nc3ccccc3c(=O)n2Cc2ccc(S(N)(=O)=O)cc2)c(O)c1 | cell growth |  |  |  | TGI | 5.38 µM
Cc1cc(C)n(-c2nc(-c3ccc(Cl)cc3)c3c(NC(=O)c4ccccc4)nnc-3[nH]2)n1 |  |  | 10 µM |  | growth percent | 101%
CCCC(CCC)C(=O)OCc1cn(-c2c3ccccc3nc3ccccc23)nn1 |  | NCI60 single dose | 10 µM |  | growth | 84.4%
CCCCN1CCN(c2ccc3[nH]c(-c4ccc5[nH]c(-c6ccc(C(F)(F)F)cc6)nc5c4)nc3c2)CC1 | cell growth |  | 10 µM | 48 h | growth percent | -58.7%

Excerpt of the above:
SMILES | read-out | method | concentration | time | measurement | value
CSc1nc(-c2ccc(Cl)cc2)c2c(NC(=O)c3ccccc3)nnc-2[nH]1 |  |  | 10 µM |  | growth percent | 94.1%
COc1c(CCC[P+](c2ccccc2)(c2ccccc2)c2ccccc2)cc2c(c1OC)OCO2.[I-] |  | SRB |  |  | Log10LC50 | > -4 log M
